# Measurements of several laboratories.
# Each line is one published result; not all experiments were run side by side. Values joined by “and” are separate records of one study, mostly repeats; a detail may differ.
SMILES,organism,assay,system,conditions,how to read,endpoint,value
C[C@H]1COCCN1c1nc(NCc2cccnc2C(F)(F)F)c2cccnc2n1,Brugia malayi,,SCID mouse,"dose not given, 6 weeks post-treatment, dosing x14d",,total adult worm count,18
Cn1cc(NC(=O)c2cc(NC(=O)CN=C(N)N)cn2C)cc1C(=O)NCCC(=N)N,Bacillus subtilis,bacterial cytological profiling,ATCC 6633,,,DNA perimeter,6.16 µm and 6.56 µm and 6.63 µm
Cl.N=C(CC(O)c1cc2c(F)cc(F)cc2c2cc(C(F)(F)F)ccc12)Nc1ccc(Br)cc1 (centres unmarked),Plasmodium berghei,Peters test,"ANKA, mice","oral, 4 x 30 mg/kg",,mean survival time,30 days
Nc1ncnc2c1ncn2[C@@H]1O[C@@H]2COP(=O)(O)O[C@H]3[C@@H](O)[C@H](n4cnc5c(=O)[nH]cnc54)O[C@@H]3COP(=O)(O)O[C@H]2[C@H]1O,West Nile virus,"RNA sequencing, item: extracellular matrix degradation R-HSA-1474228",HFF-1 cells,"concentration not given, downregulated pathway",relative to: WNV-infected untreated cells,fold enrichment,4.71
Cn1c(=O)ccc2ccc(F)c(CCNC[C@H]3CN(c4cnc5c(n4)NC(=O)CO5)C(=O)O3)c21,Citrobacter spp.,,,,,MIC90,1 µg/mL
CS(=O)(=O)CCCn1c(Cn2c(=O)n(CC(F)(F)F)c3ccncc32)cc2cc(Cl)ccc21,respiratory syncytial virus,RT-qPCR,"hospitalized infants 1-24 months, nasal swab","oral, 1-9 mg/kg daily, day 2, all doses combined",relative to: baseline,LS mean viral load change,-1.44 log10 copies/mL
Cl.N/C(CC(O)c1cc2c(F)cc(F)cc2c2cc(C(F)(F)F)ccc12)=N\c1ccc(F)cc1 (centres unmarked),Plasmodium berghei,Peters suppressive test,"ANKA, infected mice","oral, 4 x 30 mg/kg, day 4",relative to: untreated control,parasitemia reduction,99.9%
CC[C@H](C)[C@H](NC(=O)[C@H](C)NC(=O)[C@H](CCCCN)NC(=O)[C@H](CC(C)C)NC(=O)[C@H](C)NC(=O)[C@@H](NC(=O)[C@H](Cc1c[nH]cn1)NC(=O)[C@H](CC(C)C)NC(=O)[C@@H](NC(=O)[C@@H](NC(=O)[C@H](CCCCN)NC(=O)[C@H](C)NC(=O)[C@H](C)NC(=O)[C@H](CO)NC(=O)[C@H](CCCCN)NC(=O)[C@H](Cc1ccccc1)NC(=O)[C@@H](NC(=O)[C@H](CCCCN)NC(=O)[C@H](CC(C)C)NC(=O)[C@H](Cc1ccccc1)NC(=O)[C@H](CO)NC(=O)[C@H](CCCCN)NC(=O)[C@H](Cc1c[nH]c2ccccc12)NC(=O)[C@H](CCCCN)NC(C)=O)[C@@H](C)O)[C@@H](C)O)C(C)C)[C@@H](C)O)C(=O)N[C@@H](CO)C(=O)N[C@@H](CO)C(N)=O,Staphylococcus aureus,,MSSA,67 strains,,MBC50,4 µg/mL

# Excerpt of the above:
SMILES,organism,assay,system,conditions,how to read,endpoint,value
Cl.N=C(CC(O)c1cc2c(F)cc(F)cc2c2cc(C(F)(F)F)ccc12)Nc1ccc(Br)cc1 (centres unmarked),Plasmodium berghei,Peters test,"ANKA, mice","oral, 4 x 30 mg/kg",,mean survival time,30 days
